Assay results gathered from unrelated publications.
Each line is one published result; not all experiments were run side by side. Several values in a cell are separate wells, animals, samples, runs or records. Numbers after ± are the reported error.

SMILES	cell line	test	system	setting	scale	measurement	value
NC(=O)N/N=C/c1ccc(OCc2ccccc2)cc1	IMR-32	measured: GPX3		50 µg/mL, 24 h	higher = more activity	glutathione peroxidase activity (OD450)	0.075 a.u.
CC(C)CC(O)(CC(C)C)c1cn(C(=O)N2CCCC2)nn1	mouse T-cells	SILAC proteomics, measured: TPI1		1 nM, 6 h, unit not given	relative to: DMSO	protein level	1.12
CC[C@H](C)[C@H](NC(=O)[C@H](C)NC(=O)CNC(=O)[C@H](Cc1ccccc1)NC(=O)[C@H](CC(N)=O)NC(=O)[C@H](CC(N)=O)NC(=O)[C@H](CO)NC(=O)[C@H](CO)NC(=O)[C@H](Cc1c[nH]cn1)NC(=O)[C@@H](NC(=O)[C@H](CC(C)C)NC(=O)[C@H](Cc1ccccc1)NC(=O)[C@H](CC(N)=O)NC(=O)[C@H](C)NC(=O)[C@H](CC(C)C)NC(=O)[C@H](CCCNC(=N)N)NC(=O)[C@H](CCC(N)=O)NC(=O)[C@@H](NC(=O)[C@H](C)NC(=O)[C@@H]1CSSC[C@H](NC(=O)[C@@H](N)CCCCN)C(=O)N[C@@H](CC(N)=O)C(=O)N[C@@H]([C@@H](C)O)C(=O)N[C@@H](C)C(=O)N[C@@H]([C@@H](C)O)C(=O)N1)[C@@H](C)O)C(C)C)C(=O)N[C@@H](CC(C)C)C(=O)N[C@@H](CO)C(=O)N[C@@H](CO)C(=O)N[C@H](C(=O)N[C@@H](CC(N)=O)C(=O)N[C@H](C(=O)NCC(=O)N[C@@H](CO)C(=O)N[C@@H](CC(N)=O)C(=O)N[C@H](C(=O)N[C@@H](Cc1ccc(O)cc1)C(N)=O)[C@@H](C)O)C(C)C)[C@@H](C)O	RIN-m5F	colocalization microscopy, measured: γ-tubulin		10 µM, 24 h		Pearson colocalization coefficient	< 0.3
O=C(C[Se]C(=O)c1ccccc1Nc1ccccc1)Nc1cccc(C(F)(F)F)c1	NCI60 colon subpanel	NCI60 five-dose screen				CC50	18.2 µM
CC(=O)NCSC[C@H](NC(=O)[C@@H]1CCCN1C(=O)[C@H](C)NC(=O)[C@@H](NC(=O)CNC(=O)[C@@H](NC(=O)[C@H](Cc1c[nH]c2ccccc12)NC(=O)[C@H](C)NC(=O)CNC(=O)[C@H](CO)NC(=O)[C@H](C)NC(=O)[C@@H]1CCCN1C(=O)[C@H](Cc1c[nH]c2ccccc12)NC(=O)[C@H](C)NC(=O)[C@H](C)NC(=O)[C@@H](N)Cc1ccc(O)cc1)[C@@H](C)O)[C@@H](C)O)C(=O)N[C@@H](CO)C(=O)N[C@@H](C)C(=O)NCC(=O)N[C@H](C(=O)NCCOCCOCCOCCOCCOCCOCCOCCOCCOCCOCCOCCOCCC(=O)N[C@@H](CS)C(N)=O)[C@@H](C)O	LNCaP prostate carcinoma	cell binding, phage binding, measured: output/input phage		10 min, 37 °C	relative to: control phage	selectivity ratio	0.31 ± 0.27
CC(=O)Oc1ccccc1C(=O)[Se]CC(=O)Nc1cccc(C(F)(F)F)c1	NCI60 colon subpanel	NCI60 five-dose screen				CC50	46.3 µM
Cc1cc(Oc2nc(N3CC[C@@H](c4ccncc4)C3)ncc2F)[nH]n1	COLO-678	cell proliferation	colon cancer			IC50	77.6 µM
O=C(C[Se]C(=O)c1ccco1)Nc1cccc(C(F)(F)F)c1	NCI60 breast subpanel	cell growth		10 µM, 48 h, one-dose		mean growth percent	-18.8%
COc1ccccc1-c1ccncc1C(=O)Nc1nnc(OCc2ccc(Cl)cc2)s1	DLD-1 parental (BRCA2 WT)			1 µM, average of 3 runs	relative to: untreated	colony survival	96.5%
O=C(O)c1ccc(-c2nc(-c3ccccc3Cl)c3sccn23)cc1	K562	megakaryocyte differentiation, flow cytometry		0.1 mM, 24 h	relative to: untreated	CD61 fluorescence intensity	1.01 fold change and 1.03 fold change
CSCC[C@H](NC(=O)[C@@H](NC(=O)[C@H](CCC(N)=O)NC(=O)[C@H](CO)NC(=O)[C@@H](N)C(C)C)[C@@H](C)O)C(=O)N[C@@H](CCCNC(=N)N)C(=O)N[C@@H](CCC(N)=O)C(=O)N[C@H](C(=O)N[C@@H](C)C(=O)N[C@H](C(=O)N1CCC[C@H]1C(=O)N[C@@H](CC(C)C)C(=O)N[C@@H](CC(C)C)C(=O)N[C@@H](Cc1c[nH]c2ccccc12)C(=O)N[C@@H](Cc1ccccc1)C(=O)N[C@@H](Cc1c[nH]c2ccccc12)C(=O)N[C@H](C(=O)NCC(=O)N[C@@H](CO)C(=O)N[C@@H](CC(C)C)C(=O)NCCOCCOCCOCCOCCOCCOCCOCCOCCOCCOCCOCCOCCC(=O)N[C@@H](CS)C(N)=O)[C@@H](C)O)C(C)C)[C@@H](C)O	MDA-MB-231 breast cancer	cell binding, phage binding, measured: output/input phage		10 min, 37 °C	relative to: control phage	selectivity ratio	28 ± 13.3
CCCNC(=O)[C@H]1O[C@@H]1C(=O)N[C@H](C(=O)N1CCC[C@H]1C(=O)OCC1=C2C(C)=CC(C)=[N+]2[B-](C)(C)n2c(C)cc(C)c21)[C@@H](C)CC	MCF-10A	MTT		72 h	relative to: dark EC50 over light EC50	phototoxicity index	7.7
CC(C)C[C@H](NC(=O)[C@H](CC(=O)O)NC(=O)CNC(=O)[C@@H](N)CCCNC(=N)N)C(=O)N[C@@H](C)C(=O)N[C@H](C(=O)N[C@@H](CC(C)C)C(=O)N[C@@H](CCCNC(=N)N)C(=O)N[C@@H](CCC(N)=O)C(=O)N[C@@H](CC(C)C)C(=O)N[C@@H](C)C(=O)N[C@@H](CCC(N)=O)C(=O)N[C@@H](CCC(=O)O)C(=O)N[C@@H](CC(=O)O)C(=O)NCC(=O)N[C@H](C(=O)N[C@H](C(=O)NCC(=O)N[C@H](C(=O)N[C@@H](CCCNC(=N)N)C(=O)NCCOCCOCCOCCOCCOCCOCCOCCOCCOCCOCCOCCOCCC(=O)N[C@@H](CS)C(N)=O)C(C)C)C(C)C)C(C)C)[C@@H](C)O	BEAS-2B bronchial epithelial	cell binding, phage binding, measured: output/input phage		10 min, 37 °C	relative to: control phage	selectivity ratio	4.1 ± 2
O=C(C[Se]C(=O)c1cccnc1Nc1cccc(C(F)(F)F)c1)Nc1cccc(C(F)(F)F)c1	NCI60 breast subpanel	NCI60 five-dose screen				CC50	13.4 µM
CSCC[C@H](N)C(=O)N[C@@H](C)C(=O)N[C@@H](Cc1c[nH]c2ccccc12)C(=O)N[C@@H](Cc1c[nH]cn1)C(=O)N[C@@H](CC(=O)O)C(=O)N[C@@H](CC(=O)O)C(=O)N[C@@H](CCC(=O)O)C(=O)N[C@@H](CCC(=O)O)C(=O)N[C@@H](Cc1ccccc1)C(=O)N[C@@H](C)C(=O)N[C@@H](CCCNC(=N)N)C(=O)N[C@@H](CCCNC(=N)N)C(=O)N[C@@H](CCCNC(=N)N)C(=O)N[C@@H](CCCNC(=N)N)C(=O)NCCCCCC(=O)NCCCCC(NC(=O)CCCCCNC(=O)[C@H](CCCNC(=N)N)NC(=O)[C@H](CCCNC(=N)N)NC(=O)[C@H](CCCNC(=N)N)NC(=O)[C@H](CCCNC(=N)N)NC(=O)[C@H](C)NC(=O)[C@H](Cc1ccccc1)NC(=O)[C@H](CCC(=O)O)NC(=O)[C@H](CCC(=O)O)NC(=O)[C@H](CC(=O)O)NC(=O)[C@H](CC(=O)O)NC(=O)[C@H](Cc1c[nH]cn1)NC(=O)[C@H](Cc1c[nH]c2ccccc12)NC(=O)[C@H](C)NC(=O)[C@@H](N)CCSC)C(=O)NCCCCC(NC(=O)C(CCCCNC(=O)CCCCCNC(=O)[C@H](CCCNC(=N)N)NC(=O)[C@H](CCCNC(=N)N)NC(=O)[C@H](CCCNC(=N)N)NC(=O)[C@H](CCCNC(=N)N)NC(=O)[C@H](C)NC(=O)[C@H](Cc1ccccc1)NC(=O)[C@H](CCC(=O)O)NC(=O)[C@H](CCC(=O)O)NC(=O)[C@H](CC(=O)O)NC(=O)[C@H](CC(=O)O)NC(=O)[C@H](Cc1c[nH]cn1)NC(=O)[C@H](Cc1c[nH]c2ccccc12)NC(=O)[C@H](C)NC(=O)[C@@H](N)CCSC)NC(=O)CCCCCNC(=O)[C@H](CCCNC(=N)N)NC(=O)[C@H](CCCNC(=N)N)NC(=O)[C@H](CCCNC(=N)N)NC(=O)[C@H](CCCNC(=N)N)NC(=O)[C@H](C)NC(=O)[C@H](Cc1ccccc1)NC(=O)[C@H](CCC(=O)O)NC(=O)[C@H](CCC(=O)O)NC(=O)[C@H](CC(=O)O)NC(=O)[C@H](CC(=O)O)NC(=O)[C@H](Cc1c[nH]cn1)NC(=O)[C@H](Cc1c[nH]c2ccccc12)NC(=O)[C@H](C)NC(=O)[C@@H](N)CCSC)C(N)=O (stereo partly shown)	mouse bone marrow macrophages	immunocytochemistry		3 µM, with: RANKL		nuclei with nuclear p38	50%
CC(C)C[C@H](NC(=O)[C@H](CCC(=O)O)NC(=O)[C@@H](N)Cc1ccccc1)C(=O)N[C@@H](CCC(=O)O)C(=O)N[C@@H](CCCNC(=N)N)C(=O)N[C@@H](CCCNC(=N)N)C(=O)N[C@@H](Cc1ccccc1)C(=O)N[C@@H](CCCCN)C(=O)N[C@@H](CCC(N)=O)C(=O)N[C@@H](CCC(N)=O)C(=O)O	HCT-116	CCK-8		20 µM	relative to: vehicle	viability	105% and 95.3%
CC(C)C[C@H](NC(=O)[C@H](CCC(=O)O)NC(=O)[C@@H](NC(=O)CN)[C@@H](C)O)C(=O)N1CCC[C@H]1C(=O)N[C@@H](CO)C(=O)N1CCC[C@H]1C(=O)N1CCC[C@H]1C(=O)N[C@@H](CO)C(=O)N[C@H](C(=O)N[C@@H](Cc1c[nH]c2ccccc12)C(=O)N[C@@H](Cc1ccccc1)C(=O)N[C@@H](CCC(=O)O)C(=O)N[C@@H](C)C(=O)N[C@@H](CCC(=O)O)C(=O)N[C@@H](Cc1ccccc1)C(=O)O)C(C)C	HepG2	MTT		40 µg/mL, 24 h		viability	92.94 ± 0.66%
O=C(C[Se]C(=O)c1ccccc1)Nc1cccc(C(F)(F)F)c1	NCI60 CNS subpanel	NCI60 five-dose screen				CC50	7.81 µM
CC1CCC2C(C)C(OC(=O)CCC(=O)N3CCC(Nc4ccc(S(=O)(=O)NC(=O)c5ccc(N6CCN(CC7=C(c8ccc(Cl)cc8)CC(C)(C)CC7)CC6)cc5Oc5cnc6[nH]ccc6c5)cc4[N+](=O)[O-])CC3)OC3OC4(C)CCC1C32OO4 (stereo not shown)	KCL-22	annexin V/PI flow cytometry, measured: annexin V+/PI-		3.2 µM, 24 h		early apoptotic cells	56.7%
CC(C)[C@H](NC(=O)[C@H](CCCNC(=N)N)NC(=O)[C@@H]1CCCN1C(=O)[C@@H](NC(=O)[C@H](C)NC(=O)[C@H](Cc1ccc(O)cc1)NC(=O)[C@H](CCC(N)=O)NC(=O)[C@H](CCCCN)NC(=O)[C@H](CCCNC(=N)N)NC(=O)[C@@H]1CCCN1C(=O)[C@H](CCC(=O)O)NC(=O)[C@@H](NC(=O)[C@H](C)N)[C@@H](C)O)[C@@H](C)O)C(=O)N[C@@H](Cc1ccccc1)C(=O)N[C@@H](Cc1c[nH]c2ccccc12)C(=O)N[C@H](C(=O)N[C@@H](CC(=O)O)C(=O)N[C@@H](C)C(=O)N1CCC[C@H]1C(=O)NCC(=O)NCCOCCOCCOCCOCCOCCOCCOCCOCCOCCOCCOCCOCCC(=O)N[C@@H](CS)C(N)=O)[C@@H](C)O	HCC827	phage binding			relative to: targeting over control phage	selectivity ratio	3.2 ± 1.6
O=C(C[Se]C(=O)c1cc2ccccc2[nH]1)Nc1cccc(C(F)(F)F)c1	NCI60 breast subpanel	NCI60 five-dose screen				CC50	11.1 µM
CC(C)(C)C(=O)OCOP(=O)(OCOC(=O)C(C)(C)C)C1CCCN(O)C1=O (stereo not shown)	MDA-MB-468					GI50	0.977 µM
